Assay results of several laboratories.
Several values in a cell are separate wells, animals, samples, runs or records.
Target: Dual specificity protein kinase CLK3 (CLK3, Homo sapiens, UniProt P49761)
Sequence (P49761 1-490, as in one of the studies): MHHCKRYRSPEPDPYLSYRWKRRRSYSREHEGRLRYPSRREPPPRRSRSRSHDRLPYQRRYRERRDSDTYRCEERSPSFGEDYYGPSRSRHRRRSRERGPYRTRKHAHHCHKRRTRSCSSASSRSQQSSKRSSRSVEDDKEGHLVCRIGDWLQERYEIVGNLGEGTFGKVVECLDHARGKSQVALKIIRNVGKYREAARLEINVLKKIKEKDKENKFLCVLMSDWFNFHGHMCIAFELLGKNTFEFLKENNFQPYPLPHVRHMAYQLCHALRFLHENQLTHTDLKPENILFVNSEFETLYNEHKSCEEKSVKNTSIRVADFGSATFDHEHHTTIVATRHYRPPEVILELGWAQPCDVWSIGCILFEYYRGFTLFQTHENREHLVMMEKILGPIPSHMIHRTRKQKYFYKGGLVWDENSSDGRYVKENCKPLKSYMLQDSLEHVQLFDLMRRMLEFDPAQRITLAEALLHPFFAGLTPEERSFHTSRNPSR

| Structure (SMILES) | assay | conditions | how to read | endpoint | value |
| --- | --- | --- | --- | --- | --- |
| Cc1ccc(-c2c(/C=C(\C#N)C(=O)NC(C)C)n(CCCO)c3ncnc(N)c23)cc1 | cell-free assay, competition with immobilised ligand | 1 µM | – | remaining binding | 79% |
| O=C(Cc1ccc(OCc2ccccc2)cc1)NC1(C(=O)O)CCN(C(=O)c2ccc(-c3cccc(Cl)c3)cc2)CC1 | enzyme activity, inhibitor | 10 µM | – | activity vs control | 113% |
| C=CC(=O)N1CCc2ccc(-n3c(=O)ccc4cnc5ccc(-c6cnn(C)c6)cc5c43)cc21 | KINOMEscan | 1 µM | baseline: DMSO control | remaining binding | 100% |
| O=C=[N][Ru-4]123([n]4c5ccc(O)cc5c5c6c(c7cc(F)c[n+]1c7c54)C(=O)NC6=O)[S+]1CC[S+]2CC[S+]3CC1 (centres unmarked) | enzyme activity | 100 nM, human enzyme, added: 10 µM ATP | baseline: untreated | remaining activity | 105% |
| Cc1cccc(O[C@H]2CCC[C@@H](C(C)CNCc3ccncc3)C2)c1 (relative stereo) | enzyme activity, inhibitor | 1 µM | – | inhibition | 2% |
| CN1CC[C@@H](COc2cnc(C#N)cc2-c2ccn3nc(NC(=O)C4CC4)cc3c2)C1 | enzyme activity, inhibitor | 1 µM | – | inhibition | 15% |
| CN1CCN(Cc2ccc(-c3ccc(CO[C@H]4CCC[C@@H]4NC(=O)c4cc(-c5cnn(C)c5)cnc4N)cc3)cc2)CC1 | enzyme activity, inhibitor | 0.1 µM | – | inhibition | 0% |
| CNC(=O)C[C@H](Cc1ccc(C#N)cc1)NC(=O)c1cc(-c2ccc(CN[C@H](C)c3ccc(C)cc3)o2)ccc1Cl | enzyme activity, inhibitor | 1 µM | – | activity vs control | 99% |
| C=CC(=O)Nc1cccc(-c2cnc3[nH]cc(C(=O)NC(C)(C)C)c3n2)c1 | kinase activity | 0.1 µM | – | inhibition | 16% and 15% |
| CCn1cc(C(=O)O)c(=O)c2c(N)c(F)c(NC3CCCCC3)cc21 | kinase activity | 0.1 µM, added: ATP at Km | – | inhibition | -6.8% |
| COc1c(OCCCN2CCOCC2)ccc2c1N=C(NC(=O)c1cnc(N)nc1)N1CCN=C21 | kinase activity, inhibitor | 1 µM | baseline: untreated control | remaining activity | 117% |
| COc1ccc(NC(=O)Nc2ccc3c(c2)C(=O)N(C(C)CO)CC(C)C(CN(C)Cc2ccc4c(c2)OCO4)O3)cc1 (centres unmarked) | kinase activity, KinaseProfiler | 0.03 µM, species human | baseline: control | remaining activity | 93% |
| CNC(=O)C1CCN(c2cc(C)c(F)cc2NC(=O)c2ccc(-c3cc(O)ccc3C)c(C)c2)CC1 | binding, competition with immobilised ligand | 1 µM | – | remaining binding | 88% |
| NC(=O)[C@@H](O)C[C@H]1CCc2sc3ncnc(O[C@H]4CC[C@H](N5CCOCC5)CC4)c3c21 | enzyme activity, inhibitor | 10 µM | – | inhibition | 6% |
